Measurements from different studies.
Numbers after ± are the reported error.
Cell line: MOLT-4

| SMILES | assay | test system | setting | scale | endpoint | result |
| --- | --- | --- | --- | --- | --- | --- |
| O=C(Nc1nnc2n3c(Cc4ccccc4)n[nH]c3nc(-c3ccc(Cl)cc3)c1-2)c1ccccc1 | SRB |  | 10 µM, NCI60 single-dose screen | baseline: untreated | cell growth | 107% |
| COc1ccc2oc(C(=O)c3ccccc3)cc2c1-c1ccccc1 | cell proliferation |  | 72 h |  | IC50 | > 50 µM |
| COc1ccc(OC)c(-c2nc3ccc(-c4nc5ccc(N6CCN(C)CC6)cc5[nH]4)cc3[nH]2)c1 | SRB |  | 10 µM, 48 h |  | growth percent | 77.7% |
| O=C1NC(c2ccccc2)(c2ccccc2)C(=O)N1Cc1cn(-c2cc3ccccc3oc2=O)nn1 | NCI60 single-dose screen |  | 10 µM |  | growth percentage | 90.6% |
| CCCCN1CCN(c2ccc3[nH]c(-c4ccc5[nH]c(-c6ccc(C(F)(F)F)cc6)nc5c4)nc3c2)CC1 | SRB |  | 10 µM, 48 h |  | growth percent | -61% |
| COc1ccccc1C(=O)c1cc2c(-c3ccccc3)c(OC)ccc2o1 | cell proliferation |  | 72 h |  | IC50 | > 50 µM |
| CCCCN1CCN(c2ccc3[nH]c(-c4ccc5[nH]c(-c6ccc(OCC)cc6)nc5c4)nc3c2)CC1 | SRB |  | 10 µM, 48 h |  | growth percent | 56.9% |
| Cc1cc(=O)[nH]c(=O)n1Cc1cn(-c2cc3ccccc3oc2=O)nn1 | NCI60 single-dose screen |  | 10 µM |  | growth percentage | 109% |
| Cc1cc(C)n(-c2nc(-c3ccc(Cl)cc3)c3c(NC(=O)c4ccccc4)nnc-3[nH]2)n1 | SRB |  | 10 µM, NCI60 single-dose screen | baseline: untreated | cell growth | 108% |
| CCCCN1CCN(c2ccc3[nH]c(-c4ccc5[nH]c(-c6ccc(OCC)c(OCC)c6)nc5c4)nc3c2)CC1 | SRB |  | 10 µM, 48 h |  | growth percent | -0.13% |
| C#C[C@@]1(O)[C@@H](CO)O[C@@H](n2cc(F)c3c(N)ncnc32)[C@@H]1O | SRB |  | NCI-60 screen |  | TGI | > 100 µM |
| COc1ccc(C(=O)c2cc3c(-c4ccccc4)c(O)ccc3o2)cc1 | cell proliferation |  | 72 h |  | IC50 | 0.69 ± 0.61 µM |
| CCOc1ccc(-c2nc3cc(-c4nc5cc(N6CCN(C)CC6)ccc5[nH]4)ccc3[nH]2)cc1OCC | SRB |  | 10 µM, 48 h |  | growth percent | 9.04% |
| Cc1cc(=O)[nH]c(=O)n1Cc1cn(-c2c3ccccc3nc3ccccc23)nn1 | NCI60 single-dose screen |  | 10 µM |  | growth percentage | 48.5% |
| CSc1nc(-c2ccc(Cl)cc2)c2c(NC(=O)c3ccccc3)nnc-2[nH]1 | SRB |  | 10 µM, NCI60 single-dose screen | baseline: untreated | cell growth | 99.1% |
| CCn1cc(-c2cc(Cn3ccnc3)cc3c2CCN([C@H](c2cc(OC)ccn2)C2CC2)C3=O)c(C(F)(F)F)n1 | cell growth, inhibitor |  | 120 h |  | EC50 | 12.3 µM |
| Cc1cc(=O)[nH]n1-c1nc(-c2ccc(Cl)cc2)c2c(NC(=O)c3ccccc3)nnc-2[nH]1 | SRB |  | 10 µM, NCI60 single-dose screen | baseline: untreated | cell growth | 94.8% |
| CCCN1CCN(c2ccc3[nH]c(-c4ccc5[nH]c(-c6ccc(OCC)c(OCC)c6)nc5c4)nc3c2)CC1 | SRB |  | 10 µM, 48 h |  | growth percent | 3.28% |
| COc1cccc(C(=O)c2cc3c(-c4ccccc4)c(OC)ccc3o2)c1 | cell proliferation |  | 72 h |  | IC50 | 4.8 ± 1.1 µM |
| C#C[C@@]1(O)[C@@H](CO)O[C@@H](n2cc(I)c3c(N)ncnc32)[C@@H]1O | SRB |  | NCI-60 screen |  | TGI | 0.831 µM |
| O=C1NC(=NCc2cccs2)S/C1=C\c1ccc2ncccc2c1 | cytotoxicity, MTS | NCI60 panel | acute lymphoblastic leukaemia |  | IC50 | 5.2 µM |
| S=C([S][Au-][P+](CCCCCC[P+]([Au-][S]C(=S)n1cccn1)(c1ccccc1)c1ccccc1)(c1ccccc1)c1ccccc1)n1cccn1 | cell growth, NCI-60 screen |  | leukemia |  | log10 TGI | -4.49 |
| COc1ccc(/C=C\c2cc(OC)c(OC)c(OC)c2)cc1O | cell proliferation |  | 72 h |  | IC50 | 0.021 ± 0.0008 µM |
| O=C(Nc1nnc2n3c(=S)[nH][nH]c3nc(-c3ccc(Cl)cc3)c1-2)c1ccccc1 | SRB |  | 10 µM, NCI60 single-dose screen | baseline: untreated | cell growth | 101% |
| O=C1NC(c2ccccc2)(c2ccccc2)C(=O)N1Cc1cn(-c2c3ccccc3nc3ccccc23)nn1 | NCI60 single-dose screen |  | 10 µM |  | growth percentage | 53.5% |
| CCOC(=O)CSc1nc(-c2ccc(Cl)cc2)c2c(NC(=O)c3ccccc3)nnc-2[nH]1 | SRB |  | 10 µM, NCI60 single-dose screen | baseline: untreated | cell growth | 99.5% |
| Cn1cncc1C1=CN(c2ncnc3[nH]cnc23)CCS1 |  |  | leukemia |  | TGI | 93.3 µM |

A few entries again:
| SMILES | assay | test system | setting | scale | endpoint | result |
| --- | --- | --- | --- | --- | --- | --- |
| CCCN1CCN(c2ccc3[nH]c(-c4ccc5[nH]c(-c6ccc(OCC)c(OCC)c6)nc5c4)nc3c2)CC1 | SRB |  | 10 µM, 48 h |  | growth percent | 3.28% |
